Measurements of several laboratories.
Compare with care: the assays were run in different laboratories. Several values in a cell are separate wells, animals, samples, runs or records. Numbers after ± are the reported error.
Sequence of UniProt P04062 (whole entry, unmodified, looked up): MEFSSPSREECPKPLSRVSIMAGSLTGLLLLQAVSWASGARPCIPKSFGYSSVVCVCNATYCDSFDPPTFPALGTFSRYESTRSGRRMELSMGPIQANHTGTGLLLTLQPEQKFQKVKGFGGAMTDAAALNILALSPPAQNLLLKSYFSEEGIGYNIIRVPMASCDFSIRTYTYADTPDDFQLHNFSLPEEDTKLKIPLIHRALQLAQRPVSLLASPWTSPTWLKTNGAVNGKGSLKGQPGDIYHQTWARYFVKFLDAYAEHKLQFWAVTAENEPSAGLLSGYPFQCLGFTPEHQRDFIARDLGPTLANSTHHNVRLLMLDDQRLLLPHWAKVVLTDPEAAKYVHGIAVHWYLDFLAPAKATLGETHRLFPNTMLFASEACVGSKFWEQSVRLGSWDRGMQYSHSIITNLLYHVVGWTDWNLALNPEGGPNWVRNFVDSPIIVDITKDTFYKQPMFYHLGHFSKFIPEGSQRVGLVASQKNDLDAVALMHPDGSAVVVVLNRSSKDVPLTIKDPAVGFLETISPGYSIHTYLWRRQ

| SMILES | tested on | test | test system | conditions | scale | endpoint | result |
| --- | --- | --- | --- | --- | --- | --- | --- |
| CC[C@H](C)[C@H](NC(=O)[C@H](CCCCN)NC(=O)[C@H](CCC(=O)O)NC(=O)[C@H](CCCCN)NC(=O)[C@H](CC(C)C)NC(=O)[C@H](C)NC(=O)[C@H](C)NC(=O)[C@@H](NC(=O)[C@H](CCCCN)NC(=O)[C@@H]1CSCc2cccc(c2)CSC[C@H](NC(=O)[C@@H](NC(=O)[C@H](CCCCN)NC(C)=O)[C@@H](C)CC)C(=O)N[C@@H](C)C(=O)N[C@@H](CC(C)C)C(=O)N[C@@H](CCCCN)C(=O)N1)[C@@H](C)CC)C(=O)N[C@@H](C)C(=O)N[C@@H](C)C(=O)N[C@@H](CC(C)C)C(=O)N[C@@H](CCCCN)C(=O)N[C@@H](CCC(=O)O)C(=O)NCC(=O)N[C@@H](Cc1c[nH]c2ccccc12)C(N)=O | – | tryptophan fluorescence titration | DOPC/DOPE/cholesterol 2:1:1 liposomes in PBS | – | – | ΔG of membrane partitioning | -6.73 kcal/mol |
| OC[C@@H]1[C@@H](O)[C@H](O)[C@@H](O)CN1CCCCCOCc1ccc(-c2ccc(C(F)(F)F)cc2)cc1 | GBA1 (Homo sapiens, UniProt P04062, R534H) | inhibitor, 4MU-β-D-glucopyranoside | – | added: 4MU-β-D-glucopyranoside | – | IC50 | 400 nM |
| Nc1nc2cnc(C(=O)N3CCOC[C@@H]3c3ccc(C(F)(F)F)cc3)cc2c2c1COC2 | – | – | mouse, plasma | – | – | fraction unbound | 0.071 |
| CC(C)Cc1ccc(CN2CCCC(NC(=O)c3nn(C)c(=O)c4ccccc34)C2)cc1 (stereo not drawn) | Trypanosoma cruzi | reporter mRNA translation, inhibitor, item: capped polyadenylated Renilla luciferase mRNA | cell-free extract | concentration not given | relative to: control RNA | relative translation | 99.1% |
| CC[C@H](C)[C@@H](C(=O)N[C@@H](CC(C)C)C(=O)N[C@@H](CO)C(=O)N[C@@H](CO)C(=O)N[C@H](C(=O)N[C@@H](CCC(=O)O)C(=O)N[C@H](C(=O)NCC(=O)N[C@@H](CO)C(=O)N[C@@H](CC(N)=O)C(=O)N[C@H](C(=O)N1C[C@H](O)C[C@H]1C(N)=O)[C@@H](C)O)C(C)C)[C@@H](C)O)N(C)C(=O)[C@H](C)NC(=O)CN(C)C(=O)[C@H](Cc1ccccc1)NC(=O)[C@H](CO)NC(=O)[C@H](CO)NC(=O)[C@H](CCCNC(=N)N)NC(=O)[C@H](CCC(N)=O)NC(=O)[C@H](CC(C)C)NC(=O)[C@H](Cc1ccccc1)NC(=O)[C@H](CCCC(=O)O)NC(=O)[C@H](C)NC(=O)[C@H](CC(C)C)NC(=O)[C@H](CCCNC(=N)N)NC(=O)[C@H](CCC(=O)O)NC(=O)[C@@H](NC(=O)[C@H](C)NC(=O)[C@@H]1CCCCNC(=O)C[C@H](NC(=O)[C@H](CCCNC(=N)N)NC(=O)CC[C@H](NC(=O)CCCCCCCCCCCCCCCCCCC(=O)O)C(=O)O)C(=O)NCC(=O)N[C@@H]([C@@H](C)O)C(=O)N[C@@H](C)C(=O)N[C@@H]([C@@H](C)O)C(=O)N1)[C@@H](C)O | – | SEC | formulation, histidine buffer, mannitol, NaCl | 1 weeks, pH 6.1, 40 °C | – | covalent oligomers | ≤ 0.2% |
| CCc1cnc(NC(=O)c2cc(S(=O)(=O)N3CCOCC3)ccc2N(C)C2CCCC2)s1 | – | – | mouse, serum | 10 mg/kg, 3 doses | – | Creatinine | 0.2 mg/dL |
| CC(C)[C@H](NC(=O)[C@H](Cc1c[nH]c2ccccc12)NC(=O)[C@H](CCCNC(=N)N)NC(=O)[C@H](CCCNC(=N)N)NC(=O)[C@@H](NC(=O)[C@@H](NC(=O)[C@H](CCCNC(=N)N)NC(=O)[C@@H](NC(=O)[C@@H](NC(=O)[C@H](CCCNC(=N)N)NC(=O)[C@H](CCCNC(=N)N)NC(=O)[C@@H](NC(=O)[C@H](Cc1c[nH]c2ccccc12)NC(=O)[C@H](CCCNC(=N)N)NC(=O)[C@H](CCCNC(=N)N)NC(=O)[C@@H](NC(=O)[C@H](CCCNC(=N)N)NC(=O)[C@H](CCCNC(=N)N)NC(=O)[C@@H](NC(=O)[C@H](Cc1c[nH]c2ccccc12)NC(=O)[C@H](CCCNC(=N)N)NC(=O)[C@@H](N)CCCNC(=N)N)C(C)C)C(C)C)C(C)C)C(C)C)C(C)C)C(C)C)C(C)C)C(=O)N[C@@H](CCCNC(=N)N)C(=O)N[C@@H](CCCNC(=N)N)C(=O)O | – | – | CD1 mouse, urine | intravenous, 15 mg/kg, 6 h, [14C]-labelled compound | – | creatinine excretion | 5.6 µg/day/g body weight |
| CN(O)C(=O)CCC(=O)NCCCN(CCCCN(CCCNC(=O)CCC(=O)N(C)O)C(=O)CCC(=O)N(C)O)C(=O)CCC(=O)N(C)O.[89Zr] | – | radio-TLC | aqueous buffer | 5 d, pH 8.5, 37 °C, 89Zr-labelled complex, added: DTPA 1000-fold excess | – | intact complex | 99.4 ± 0.6% |
| O=C(O)CN1CCN(CC(=O)O)CCN(CC(O)CN(CC(O)CN2CCN(CC(=O)O)CCN(CC(=O)O)CCN(CC(=O)O)CC2)C[C@H](O)[C@@H](O)[C@H](O)[C@H](O)CO)CCN(CC(=O)O)CC1 (stereo partly drawn) | – | pH-potentiometry, item: ZnH2L | – | 25 °C, 0.15 M NaCl | – | log K | 9.39 |
| O=C(Nc1cnccc1-c1ccc([18F])nc1)c1ccnc(NC(=O)C2CC2)c1 | – | – | FVB/NJ mice (both sexes), pancreas | intravenous, dose not given, 120 min | – | SUV | 0.145 |
| CSCC[C@H](N)C(=O)N[C@@H](CO)C(=O)N[C@H](C(=O)N[C@@H](C)C(=O)NCC(=O)N[C@@H](CC(C)C)C(=O)N[C@@H](CCCCN)C(=O)N[C@@H](CCCCN)C(=O)N[C@@H](CCC(N)=O)C(=O)N[C@@H](Cc1c[nH]c2ccccc12)C(=O)N[C@@H](Cc1ccc(O)cc1)C(=O)N[C@@H](CCCCN)C(=O)N[C@@H](C)C(=O)N[C@@H](CO)C(=O)N[C@@H](CCC(N)=O)C(=O)N[C@@H](CC(C)C)C(=O)N[C@H](C(=O)N[C@@H](CO)C(=O)N[C@@H](CCC(=O)O)C(=O)N[C@@H](CCCCN)C(=O)N[C@H](C(=O)NCC(=O)NCC(=O)N[C@@H](C)C(N)=O)C(C)C)C(C)C)C(C)C | – | circular dichroism titration | 25% DOPS/75% DOPC liposomes | 50 µM, pH 7.4, 20 °C | – | ΔG of binding | -6.4 kcal/mol |
| CC(C)(O)c1ncc([S@](N)(=O)=NC(=O)Nc2c3c(cc4c2CCC4)CCC3)s1 | – | item: Vascular disorders | healthy human volunteers | oral, 50 mg twice daily, 14 days, enteric-coated tablet | – | subjects with adverse events | 29% |
| CN(CCNCc1cc(C(=O)[O-])ccc1[O-])CCNCc1cc(C(=O)[O-])ccc1[O-].[Cl-].[Fe+3].[K+].[K+] | – | item: Fe(III) | – | 1 weeks, pH 7.4, added: EDTA competitor | – | log conditional stability constant | 20.5 |
| CCOC(=O)c1c(NC(=O)Cn2cnc([N+](=O)[O-])n2)sc2c1CCCC2 | Trypanosoma cruzi | reporter mRNA translation, inhibitor, item: capped polyadenylated Renilla luciferase mRNA | cell-free extract | concentration not given | relative to: control RNA | relative translation | 99.2% |
| CC(C)Cn1cc(Cc2cccc(OC(C)(C)C(=O)O)c2)c2cc(F)c(C(=O)N[C@@H](C)c3cccc(C(C)(C)C)c3)cc21 | – | – | mouse liver microsomes | 1 µM, added: microsomes 1 mg/mL | – | half-life | > 1 h |
| CC1Cc2ccccc2N1C(=O)CN1CCN(Cc2ccccc2)CC1 (stereo not drawn) | – | – | female NMRI mice, whole blood | intraperitoneal, 10 mg/kg free base, 60 min | – | blood concentration | 71 ng/mL |
| CC(C)OCCOCc1ccc(OCC(O)CN(N=O)C(C)C)cc1 (stereo not drawn) | – | duplex sequencing, item: mutation frequency | NMRI mouse, liver | oral, 4 weeks | – | lowest dose significant mutation increase | 98 mg/kg |
| COc1cc(N2CCN(C(=O)C3CCCN3)CC2)ccc1Nc1ncc(Cl)c(Nc2ccccc2P(C)(C)=O)n1 (stereo not drawn) | – | – | nude mice, NCI-H3122 xenograft | oral, dose not given, day 7 | – | body weight | 23.3 g and 22.4 g and 22.5 g and 24.5 g |

For quick reference, copied from above:
| SMILES | tested on | test | test system | conditions | scale | endpoint | result |
| --- | --- | --- | --- | --- | --- | --- | --- |
| COc1cc(N2CCN(C(=O)C3CCCN3)CC2)ccc1Nc1ncc(Cl)c(Nc2ccccc2P(C)(C)=O)n1 (stereo not drawn) | – | – | nude mice, NCI-H3122 xenograft | oral, dose not given, day 7 | – | body weight | 23.3 g and 22.4 g and 22.5 g and 24.5 g |
